Measured values pooled from the literature.
Protocols differ between the studies behind these lines. Numbers after ± are the reported error.

For `CN1C(=O)[C@@H](NC(=O)c2nnc(Cc3ccccc3)[nH]2)COc2cccnc21`, the Cmax was 1720 ng/mL (human, plasma; oral, 100 mg once daily, day 14, geometric mean).
With `COc1cc(N2CCC(N3CCN(C)CC3)CC2)ccc1Nc1ncnc(Nc2ccccc2S(=O)(=O)C(C)C)n1` the Cmax was 296 ng/mL (human, plasma; oral, 50 mg, day 28).
The Cmax of `C[C@@H](Nc1cc(F)cc(F)c1)c1cc(C(=O)N(C)C)cc2c(=O)cc(N3CCOCC3)oc12` is reported as 364 ng/mL (human; oral, 60 mg twice daily, 5:2 schedule, steady state, geometric LSM, added: abiraterone 1000 mg).
For `O=C(O)CCC(=O)O.[2H]C([2H])([2H])Oc1cc(C)c2[nH]ccc2c1CN1CC[C@@H](C2CC2)C[C@H]1c1ccc(C(=O)O)cc1`, the Cmax was 4390 ng/mL (human, plasma; 300 mg once daily, day 1, multiple ascending dose, geometric mean).
`COc1ncc(-c2nc3c(n2C(C)C)[C@H](c2ccc(Cl)cc2)N(c2cc(Cl)cn(C)c2=O)C3=O)c(OC)n1` gave a Cmax of 500 ng/mL (LC-MS/MS; human, plasma; oral, 50 mg, cycle 2 day 1, high-dose arm).
The Cmax of `Cl.[2H]C([2H])([2H])CC(=O)c1cnc(NC(=O)C2CC2)cc1Nc1cccc(-c2ncn(C([2H])([2H])[2H])n2)c1OC` is reported as 287 ng/mL (geometric mean; human; oral, 20 mg twice daily, day 14, fasted, tablet, multiple dose).
The Cmax of `CO[C@H]1C[C@@H]2CC[C@@H](C)[C@@](O)(O2)C(=O)C(=O)N2CCCC[C@H]2C(=O)O[C@H]([C@H](C)C[C@@H]2CC[C@@H](OC(=O)NCCOCCOCCOCCOCCOCCOCCOCCOCCC(=O)N3CCc4cc(Cn5nc(-c6ccc7oc(N)nc7c6)c6c(N)ncnc65)ccc4C3)[C@H](OC)C2)C[C@@H](O)[C@H](C)/C=C(\C)[C@@H](O)[C@@H](OC)C(=O)[C@H](C)C[C@H](C)/C=C/C=C/C=C/1C` is reported as 332 nM (human patients, plasma; intravenous, 8 mg, cycle 1 day 15, weekly dosing, mean).
`C[C@@H]1CCO[C@H]2Cn3cc(C(=O)NCc4ccc(F)cc4F)c(=O)c(O)c3C(=O)N12` gave a Cmax of 2650 ng/mL (human paediatric patients, weight sample B to under sample C kg, plasma; oral, 20 mg film-coated tablet, steady state, geometric mean, population PK post-hoc, N 2).
`CCOc1c([C@H](C)n2nc(C)c3c(N)ncnc32)cc(Cl)c(F)c1[C@@H]1CNC(=O)C1` gave a Cmax of 1310 ± 290 nM (human patients; oral, 15 mg once daily, cycle 1 day 15, monotherapy).
The Cmax of `O=C(COc1ccc(Cl)cc1)NC12CC(c3nnc([C@H]4C[C@@H](OC(F)(F)F)C4)o3)(C1)C2` is reported as 514 nM (healthy human volunteers fasted, plasma; oral, 45 mg single dose, geometric mean).
With `C=CC(=O)N(C)CCOc1c(N)ncnc1-c1cc(F)cc(NC(=O)c2ccc(C3CC3)cc2F)c1C` the Cmax was 245 ng/mL (human, whole blood; oral, 200 mg single dose).

Repeated from above:
The Cmax of `C[C@@H](Nc1cc(F)cc(F)c1)c1cc(C(=O)N(C)C)cc2c(=O)cc(N3CCOCC3)oc12` is reported as 364 ng/mL (human; oral, 60 mg twice daily, 5:2 schedule, steady state, geometric LSM, added: abiraterone 1000 mg).
For `O=C(O)CCC(=O)O.[2H]C([2H])([2H])Oc1cc(C)c2[nH]ccc2c1CN1CC[C@@H](C2CC2)C[C@H]1c1ccc(C(=O)O)cc1`, the Cmax was 4390 ng/mL (human, plasma; 300 mg once daily, day 1, multiple ascending dose, geometric mean).
